Measured values collected from several papers.
A part holds a random share of what one study measured. Substitutions count along the parent as printed.

Study 1 — method: RNA Bind-n-Seq; molecule type: RNA; medium: in vitro; tested at: not given; relative to: input RNA pool; reading: higher = stronger binding; quantity: bound/input enrichment
Target: RING finger protein unkempt homolog, zinc fingers 1-6, GST-SBP tag (UNK, Homo sapiens, UniProt Q9C0B0, residues 30-357)
Setting: RNA with constant flanks, human and mouse sites, ends assumed
Target sequence (chain): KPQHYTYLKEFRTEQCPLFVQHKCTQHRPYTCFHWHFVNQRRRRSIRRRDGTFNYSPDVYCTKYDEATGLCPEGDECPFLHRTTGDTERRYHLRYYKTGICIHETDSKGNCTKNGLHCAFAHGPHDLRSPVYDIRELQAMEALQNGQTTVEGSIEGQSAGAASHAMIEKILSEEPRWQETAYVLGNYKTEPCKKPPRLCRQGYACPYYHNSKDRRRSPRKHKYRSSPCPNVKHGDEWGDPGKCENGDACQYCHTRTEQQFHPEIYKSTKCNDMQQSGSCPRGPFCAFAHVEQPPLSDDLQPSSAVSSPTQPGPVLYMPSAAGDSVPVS
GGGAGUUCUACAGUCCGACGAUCCGUUACUUGUGCCAGUCUAAUGCACUACCGAGUCAUGUAAAGAUCAAUGUGUCCCGACAGACAUUAUUUGAAGAUUCCUUCCAACAGAUUAUGGCAUUAAAACCAUAUGACUUGAGGAGGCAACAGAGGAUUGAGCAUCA: 0.122 ratio
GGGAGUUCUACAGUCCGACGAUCUUCAGUGCCUCAAUUGAUGACAAGGUUGGUAGACAUGUUAAAAUGAUCGACAAUGUCUAUAAUCCUGCAGCCAUUGCUGUUGAUUGGGUGUACAAGACCAUCUACUGGACUGAUGCGGCUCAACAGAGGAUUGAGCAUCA: 0.0867 ratio
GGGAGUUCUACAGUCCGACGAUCGCAAGGCUAGAAGAGCUAUCAGACUCAGAUGAUGAACUUGACUGAAAACACACCAAGUCACUGUCAUUUUCCCUUGUGCCUCGGCCAGCUUCGCUCAGAUCCAGCACACCCUCUUGCUACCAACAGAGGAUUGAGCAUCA: 0.0988 ratio
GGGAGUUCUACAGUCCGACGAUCGUUUUGAAUAUCUUGUGUAAGCAAUUUCAUUUUUUUCCCCCACUGUCAGAAAGCUAAGGGAAGCUUCAGAGUUCUAAUCCAGUUGCAUGUAGGACAAAGGAUAUACUUUAAAUAAAGACCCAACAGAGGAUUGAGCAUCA: 0.637 ratio
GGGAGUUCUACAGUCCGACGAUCAUCUAUACAACCAUCAACGCCCACCAGUGGUCAGAGACUGUGCAGCCAAUCAUGGAAGCCCUUAGAGAUGCAACAAGGAGACGCGCCUUUGCCCUGGUCUCUCAAGCUUAUACCUCCAUCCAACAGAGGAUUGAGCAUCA: 0.296 ratio
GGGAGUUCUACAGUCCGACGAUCUUUGGUGCCAUUGGUUUCUUCUGGGUUGAGUGAGAUGUUGGAUAUUGCUAUCAAUCGCAGUAGUCUUUCCCCUGUGUGAGGCUGAAGCCUCAGAUUCCUUCUAAACACAGCUAUCUAGAGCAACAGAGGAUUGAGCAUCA: 0.243 ratio
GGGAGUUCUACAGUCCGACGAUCGCUUUCCCUGCCUUCCUGGGGACCGAGGCCUCCAGCUCAGGCAAUGGCUCCUGGCUGGAGCUGAUACCACUGGCUGCUGUGAGCGUCCACCUGCUAACAGGCAAUGGGACAGAGGUGCCUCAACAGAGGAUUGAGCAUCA: 0.153 ratio
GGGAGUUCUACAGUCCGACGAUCCUUAAUGUUAAUAUUUUUGAAUAAAUGAAGCUAAAAUGUCUGCUUUUGGUACAACACGCAUUAAUAAAAGGUUAAGUUUUGUUUUCCACUGAAGUACUAUUUAACAUCUCAGAAAAAAACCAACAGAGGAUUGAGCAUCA: 0.289 ratio

Study 2 — method: protein-binding microarray; molecule type: hairpin DNA; medium: in vitro; tested at: not given; relative to: not given; reading: higher = stronger binding; quantity: median fluorescence
Target: Runt-related transcription factor 3, Runt domain (RUNX3, Homo sapiens, UniProt Q13761, residues 53-186)
Sequence of UniProt Q13761 (53-186, looked up): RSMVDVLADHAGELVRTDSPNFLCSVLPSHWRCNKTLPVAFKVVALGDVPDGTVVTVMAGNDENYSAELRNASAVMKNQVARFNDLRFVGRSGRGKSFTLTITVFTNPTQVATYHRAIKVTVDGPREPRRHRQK
Setting: whole hairpin DNA, median over replicate spots
GAGGCCCAACCGCACGAGCCTCCTGGCTCGTGCGGTTGGGCCTCACACTC: 7510 a.u.
GAGGCCTGTTGCGGGTGGCCTCCTGGCCACCCGCAACAGGCCTCACACTC: 5410 a.u.
GAGGCCTGTTCTGGTTGGCCTCCTGGCCAACCAGAACAGGCCTCACACTC: 4780 a.u.
GAGGCCTGCGGTGGTTGGCCTCCTGGCCAACCACCGCAGGCCTCACACTC (5mC at 9): 5590 a.u.
GAGGCCTGGTGCGGTTGGCCTCCTGGCCAACCGCACCAGGCCTCACACTC: 6140 a.u.
GAGGCCTGGTGCGGTTGGCCTCCTGGCCAACCGCACCAGGCCTCACACTC (5mC at 36): 6290 a.u.
GAGGCCCAAACGCAACAGCCTCCTGGCTGTTGCGTTTGGGCCTCACACTC: 4740 a.u.
GAGGCCTGTCGCGGTTAGCCTCCTGGCTAACCGCGACAGGCCTCACACTC: 6210 a.u.

Study 3 — method: RNA Bind-n-Seq; molecule type: RNA; medium: in vitro; tested at: 200 nM; setting: whole 134-nt RNA, ends assumed; with: 150 mM LiCl; relative to: input library; reading: higher = stronger binding; quantity: log2 enrichment; each molecule: 7-deaza-guanosine replaces G
Target: Fragile X messenger ribonucleoprotein 1, C-terminal low-complexity region (Fmr1, Mus musculus, UniProt P35922)
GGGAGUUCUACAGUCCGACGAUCGCAUAAUGGAUAUUUUUUAACUUGGCGAGAUGUGUCUCUCAAUCCUGUGGCUUUGGUGAGAGAGUGUGCAGAGAGCAAUGAUAGCAAAUAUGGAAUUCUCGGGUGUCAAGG: 0.636
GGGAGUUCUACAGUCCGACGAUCAAGUCCUGUGCUACACAUCGUAUGUACCGAAUCGGAAAAAGGAAAAAGGAAAAAGGGAAAGUAUUAUGUUACGCCGUUCGGAUCUGCACUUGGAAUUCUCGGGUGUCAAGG: -0.62
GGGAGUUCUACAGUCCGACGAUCACCAUGCAGGUAAACAUCUUUGGGAAGUGGGGCAAGGGGGGGAUAGGGAGGGGGGUAACACUUUGGGAACAGGUGGUCCCAGGUCGUUUCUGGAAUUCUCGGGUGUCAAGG: 1.12
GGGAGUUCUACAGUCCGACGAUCCUGUGCUACACAUCGUAUGUACCGAAUCGGGGCCCCCCCGGCCCCCCCGGGGCCCCCCCGGAAAGUAUUAUGUUACGCCGUUCGGAUCUGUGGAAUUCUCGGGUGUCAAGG: -0.445
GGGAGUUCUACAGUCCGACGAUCAGUCCUGUGCUACACAUCGUAUGUACCGAAUCGGGGAGGGGAGGGGAAAAAAAGGGGAAAGUAUUAUGUUACGCCGUUCGGAUCUGCACUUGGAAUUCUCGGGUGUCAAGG: 0.701
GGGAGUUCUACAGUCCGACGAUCCACAGACAACACGCGCCCACACAGACACAGAGGGAAGGGGUUGGGAUGGGGACAGGGUGCACAGCAGGGCGGGGUAGGACCCCAGCCCCUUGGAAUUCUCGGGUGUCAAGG: 0.717
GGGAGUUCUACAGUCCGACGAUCCCUGUGCUACACAUCGUAUGUACCGAAUCGGGGUUUUUGGGGUUUUUGGGGUUUUUGGGGAAAGUAUUAUGUUACGCCGUUCGGAUCUGCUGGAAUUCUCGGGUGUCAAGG: -0.414
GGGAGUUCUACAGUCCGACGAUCGUCCUGUGCUACACAUCGUAUGUACCGAAUCGGGAAAAAAAGGGUUUUUUUGGGUGGGAAAGUAUUAUGUUACGCCGUUCGGAUCUGCACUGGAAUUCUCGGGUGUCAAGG: -2.21

Mixed results — starting sequence: viral docking peptide; PGASRRLFGSSAD
R5A  normalised enrichment score (CCNB2, cyclin fold, Cln2 fusion (human); yeast growth competition, sequencing; yeast; weak parent motif; relative to: not given, higher = stronger binding): 0.312
